Assay results of several laboratories.
Numbered parts are unrelated; each lists some results of a single study. Positions count from the first letter of the parent shown.

Series 1
Target: RING finger protein unkempt homolog, zinc fingers 1-6, GST-SBP tag (UNK, Homo sapiens, UniProt Q9C0B0, residues 30-357)
Sequence of UniProt Q9C0B0 (30-357, looked up): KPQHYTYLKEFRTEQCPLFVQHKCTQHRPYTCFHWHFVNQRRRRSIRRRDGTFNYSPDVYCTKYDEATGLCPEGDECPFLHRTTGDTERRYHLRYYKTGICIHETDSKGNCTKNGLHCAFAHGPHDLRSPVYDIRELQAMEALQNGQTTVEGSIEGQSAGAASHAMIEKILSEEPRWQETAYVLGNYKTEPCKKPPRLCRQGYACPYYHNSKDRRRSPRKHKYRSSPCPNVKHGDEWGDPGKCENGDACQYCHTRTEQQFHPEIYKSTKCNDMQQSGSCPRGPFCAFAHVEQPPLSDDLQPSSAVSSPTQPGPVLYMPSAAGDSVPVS
Method: RNA Bind-n-Seq
Molecule type: RNA
Sample: in vitro
Tested at: not given
Setting: RNA with constant flanks, human and mouse sites, ends assumed
Reference: input RNA pool
Direction: higher = stronger binding
All sequences stand within: GGGAGUUCUACAGUCCGACGAUC … CAACAGAGGAUUGAGCAUCA
Sequence | bound/input enrichment
AUGGGCCGAAUGAAGCUGUUGCAACAGAUGUCCCGGGUCUGGAAAACAGAUGGCUUAUCGAGUUGUUCUUACAGAUUACUCUCUGUGGAGCACAACCCUUUAUAUGCCAACAUCACAGUG | 0.0942 ratio
UGGGAUAGCCAAGCAAAAUCAGUAAUUAUUUUAAAAUGAACAUAUGUAUUUUUAUUAACUUUUAGUUAAAUACAGAUUUUACAACGAGGUCAGCAUAAGCCUAAAUCUAUAUAGAGGGCU | 3.06 ratio
GGUGUCUUCUCAAACGGAGUAAGCGCCUGGAUCCAAAUGGUAGACUACUUGACCCCGUUCUCUAGCGUGAGUUUUCAUAGUGCCAUCUCCUCAUGAUUGUAGAAGCAGCUGAAUGAGUUU | 0.221 ratio
UGAGUGAGCAGAUGAUUGAAUAUUGAUGUCAGCAUCCUUGAACACACUCAGAUGAGCAACAUAGAGCUUCUGCUUCUAUUUAAAAUGAUGCUGGGUUUGAUUGUGGUCCGAAGCUUUGAA | 0.0902 ratio
AGCACUGAUCUGGCUGUAUACUGAUCCAUCACUAACCUGUUUUCUAGGACCCAGCGUAUGUAGCAUUUGUAUUGCAGUUUCCCUGGCUUACUUGUGUUUUGCACUGAUGAAUUUUGACAG | 0.183 ratio
CAAGAAGAGAUGAGUGAGAUGCAGAAAAAGAUUAAUGAAAUAGAGAAUUUAAAGAAUGAAUUAAAGAACAAAGAAUUGACAUUGGAACAUAUGGAAACAGAGAGGCUUGAGUUGGCUCAG | 12.9 ratio
UUGUUCUGAAAUUGCUGUACUGCAAUGAAGAAGAGGAGAAAGGUUACUUCAAAUCUUGAGAAGAUCCAUCUAGGCUAUCAUAAAGAUUCUUCAGAAGGAAAUGUUGCAGUGGAGUGUGAC | 0.279 ratio
GAUCUCGGUGGGCAUGAGCAAGCACGUCGCGUUUGGAAAAAUUAUCUCCCAGCGAUUAAUGGCAUAGUUUUUCUGGUGGACUGUGCGGAUCAUUCUCGUCUCAUGGAAUCCAAAGUUGAG | 0.153 ratio
CGAUUGGAGAAGGUGUAUCUGAAGAACAGUGUCAUGGAGCUGAUUGCAAAUGGAACAUUGAACAUUUUGGAAGAGGAGAACCAUAUUAAAGAUGCUCUGUCUCGAAUUGUAGUGGAAAUG | 0.22 ratio
AUGGCAUACCACCACGACAGCAGGCGGAUAUUUGUGGGCCAGGAUAAUGGGGCUGUGAUGGAAUUUCACGUUUCUGAAGAUUUUAAUAAAAUGAAUUUUAUCAAGACCUAUCCAGCCCAC | 0.234 ratio
UUUUUAUUCUCAGUACCUCAGGCUCCCCUGUGUACUUGGAGGGGCAGGGAGCCCUUUCCUCGGUUCUGGCCUCCAGACCAGGGUAAGGGCAGGCCCCUCCAACAGGUGCUCACAGCCACC | 0.0753 ratio

Series 2
Target: Ras GTPase-activating protein-binding protein 1, C-terminal RGG region (G3BP1, Homo sapiens, UniProt Q13283)
Sequence of UniProt Q13283 (whole entry, looked up): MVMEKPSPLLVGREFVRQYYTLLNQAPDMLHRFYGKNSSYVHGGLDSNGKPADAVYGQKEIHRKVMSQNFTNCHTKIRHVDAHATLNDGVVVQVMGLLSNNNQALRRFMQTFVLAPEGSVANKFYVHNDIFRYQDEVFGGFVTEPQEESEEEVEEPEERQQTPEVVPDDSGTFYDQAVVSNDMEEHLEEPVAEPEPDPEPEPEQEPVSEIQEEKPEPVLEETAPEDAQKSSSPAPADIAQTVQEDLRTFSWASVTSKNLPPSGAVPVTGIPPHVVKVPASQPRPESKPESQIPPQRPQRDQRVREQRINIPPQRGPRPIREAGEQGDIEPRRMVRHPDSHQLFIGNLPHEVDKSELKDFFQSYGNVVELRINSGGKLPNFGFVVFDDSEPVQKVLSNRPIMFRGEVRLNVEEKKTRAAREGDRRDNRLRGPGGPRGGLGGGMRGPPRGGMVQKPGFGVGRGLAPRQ
Method: RNA Bind-n-Seq
Molecule type: RNA
Sample: in vitro
Tested at: 1 µM
Setting: whole 134-nt RNA, ends assumed
Together with: 150 mM KCl
Reference: input library
Direction: higher = stronger binding
All sequences stand within: GGGAGUUCUACAGUCCGACGAUC … UGGAAUUCUCGGGUGUCAAGG
Sequence | log2 enrichment
GCAGGAAGUAAAAACAAAUGGAAAUGCUUCGGAUAGUGGAAGGGGUGGGGGUUGCUAAGGAAAGGGUGGGAUGGGAGUGGGUAAAGAGUU | 0.766
CAAGUCCUGUGCUACACAUCGUAUGUACCGAAUCGGUUUUGGGUUUUGGGUUUUGGAAAGUAUUAUGUUACGCCGUUCGGAUCUGCACUU | -1.76
UCAAGUCCUGUGCUACACAUCGUAUGUACCGAAUCGGGGAAGGAAGGGAAGGGGAAAGUAUUAUGUUACGCCGUUCGGAUCUGCACUUCC | -0.33
AGUCCUGUGCUACACAUCGUAUGUACCGAAUCGGUUUUUGGAAAAAAAGGUUUUUGGAAAGUAUUAUGUUACGCCGUUCGGAUCUGCACU | -2.39
GCAGGAAGUAAAAACAAAUGGAAAUGCUUCGGAUAGUGGCAGGGGUGGGGGUUGCUAAGGAAAGGGUGGGAUGGGAGUGGGUUAAGAGUU | -0.114
CACAGACAACACGCACCCACACAGACACAUAGGGAAGGGGUUGGGAUGGGGACAGGGUGCACAGCAGGGCGGGGUAGGACCCCAGCCCCU | 0.182
AGUCCUGUGCUACACAUCGUAUGUACCGAAUCGGGGUGGGGAAAGGGGUUUUUGGGGAAAGUAUUAUGUUACGCCGUUCGGAUCUGCACU | 2.33
UGGCCCUGGUGGCAUGCGGGGAGGAAGAGGUGGCCUCAUGGAUCGUGGUGGUCCCGGUGGAAUGUUCAGAGGUGGCCGUGCUGGAGACAG | 1.98
UCCUGUGCUACACAUCGUAUGUACCGAAUCGGCCCCCCCGGCCCCCCCGGGCCCCCCCGGAAAGUAUUAUGUUACGCCGUUCGGAUCUGC | -0.588
UCCUCAAGUCCUGUGCUACACAUCGUAUGUACCGAAUCGGUGGUGGAAAGGAAAGUAUUAUGUUACGCCGUUCGGAUCUGCACUUCCAGC | -0.612
CUGUGCUACACAUCGUAUGUACCGAAUCGGGGAAAAAGGGGUUUUUUUGGGGAAAAAGGGGAAAGUAUUAUGUUACGCCGUUCGGAUCUG | -0.118
UCCUGUGCUACACAUCGUAUGUACCGAAUCGGGGAGGGGUUUUUGGGGAAAAAAAGGGGAAAGUAUUAUGUUACGCCGUUCGGAUCUGCA | 1.03
CUCAAGUCCUGUGCUACACAUCGUAUGUACCGAAUCGGAAGGGAAGGGAAGGGGAAAGUAUUAUGUUACGCCGUUCGGAUCUGCACUUCC | -0.256
UCAAGUCCUGUGCUACACAUCGUAUGUACCGAAUCGGAAAGGAAAGGAAAGGGGAAAGUAUUAUGUUACGCCGUUCGGAUCUGCACUUCC | -1.37

Series 3
Target: CCNE1, cyclin fold, Cln2 fusion (human)
Method: yeast growth competition, sequencing
Sample: yeast
Setting: strong parent motif
Reference: not given
Direction: higher = stronger binding
Starting sequence: GMNC docking peptide (human); KNAKRNLSSEFAN
Change | normalised enrichment score
F11W | 0.954
N2Y | 0.586
S9P | 0.661
S9Y | 2.14
S9Q | 1.34
R5E | 0.194
N6A | 0.206
L7G | -0.05
L7A | 0.547
F11I | 0.154
F11G | 0.143
A3Q | 0.198
E10T | 0.451
L7H | 0.268
S9K | 1.54
L7C | -0.128
N6W | 0.0272
L7K | 0.635
A12K | 0.852
K4C | 2.15
R5S | 0.251

Series 4
Target: ABI1, truncated, D143A, DHFR fusion (Arabidopsis thaliana)
Method: DHFR PCA, deep sequencing
Sample: yeast
Setting: methotrexate growth selection, single substitutions
Together with: (+)-ABA 1.4 µM
Reference: wild-type fitted maximum
Direction: higher = stronger binding
Starting sequence: PYL1, truncated, DHFR fusion (Arabidopsis thaliana); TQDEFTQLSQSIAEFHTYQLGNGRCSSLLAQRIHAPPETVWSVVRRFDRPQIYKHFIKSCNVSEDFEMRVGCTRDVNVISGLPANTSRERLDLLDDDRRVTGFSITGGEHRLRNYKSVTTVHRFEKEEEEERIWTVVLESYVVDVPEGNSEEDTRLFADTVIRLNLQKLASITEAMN
Change | relative binding score [%]
S63P | 66.1
T86E | 6.7
M68N | 24.7
E130Q | 58.9
S11K | 21.8
L156D | 5.14
H55R | 83.8
L20F | 23.8
P36S | 57.2
P36F | 9.9

Series 5
Target: Interferon regulatory factor 5, full length, phosphomimetic (IRF5, Homo sapiens, UniProt Q13568-2, residues 1-514, K96S/S451D/S453D/S456D/S462D)
Method: protein-binding microarray
Molecule type: double-stranded DNA, one strand shown
Sample: in vitro
Tested at: 250 nM
Setting: 60-bp whole probe
Together with: salmon DNA 0.4 mg/ml
Reference: random background probes
Direction: higher = stronger binding
All sequences stand within: GCCTAGCAC … GTCTTGATTCGCTTGACGCTGCTG
Sequence | log fluorescence [z-score]
TTGAATCTCCCATTATATTTGTGCTAG | 0.643
GACGGACTGCTTCTCATGACGTGCTAG | -0.474
GACAAACTGGGGACTGGAGACGTGCTA | -0.39
TCAGGTTTCCTTATCCTTTAGTGCTAG | 1.04
GACGATTTCGGGTTTCGAGTCGTGCTA | 5.59
TCATCTCTGCTCCTTCTGACTGTGCTA | 0.514
GACGGTTTCGGTATCGGGACGTGCTAG | 9.96
ACTAGCTTCCATTTTCTGAAGTGCTAG | 0.952
TTAGGACTGGGGATTGGGTTAGTGCTA | -0.185
GACGAACTGAGTTTCGAAACGTGCTAG | 6.07
TGAGGTATCCTACTGCTTTAGTGCTAG | -0.129
TTAGGTTTCCTTTTCGTTTAGTGCTAG | 3.21
TTAGATTTCAGTTTGGATTAGTGCTAG | 2.11
TTTCTCTGCTCTTTTCAACAAGTGCTA | 5.59
TCACTTCTGGGCTGTTTGACTGTGCTA | 0.104
ACTAATTTCCATTTTCTAAAGTGCTAG | 2.2
TTACCCCATCCCCCTTTTCTGTGCTAG | 0.315
TTAGATCTCAGACTGGATAAGTGCTAG | -0.233
GACGAACTGGGGTTACGAGACGTGCTA | -0.499
TTAGTTTTCCTACTGCTTTAGTGCTAG | 1.31
CTGAATGTCCTCCTCTCTCTGTGCTAG | -0.0179
TTAGGTATCGGTTTCGGGTAGTGCTAG | 9.55
TTAGGACTGGGTTGCGGTTAGTGCTAG | 0.242
TTAGCTCTCAGTCTCGATTAGTGCTAG | 0.927
TTAGGTATCCTTCTCCTTCAGTGCTAG | 0.243

Other studies, line by line
Molecule | target | test | system | setting | scale | quantity | value
PhoQ, residues 284 288 289 292 302 303 TSTLRA | PhoP, residues 12 14 15 18 19 QQAYL (Escherichia coli, UniProt P23836) | Sort-seq, measured: YFP reporter | E. coli | PhoQ-PhoP variant library, together with: 10 µM Mg2+ | reference: high Mg2+ state, higher = stronger signaling | fold induction | 7.89

Excerpt of the above (series 3):
Change | normalised enrichment score
R5E | 0.194
N6A | 0.206
L7G | -0.05
L7A | 0.547
F11I | 0.154
F11G | 0.143
A3Q | 0.198
